Measurements pooled from the literature.
Parts stem from different laboratories: compare values within a part only. Changes are numbered by the printed parent chain.

Series 1 — target: CCNF, cyclin fold, Cln2 fusion (human); technique: yeast growth competition, sequencing; sample: yeast; notes: strong parent motif; relative to: not given; reading: higher = stronger binding
Starting sequence: viral docking peptide; TSVRRALFTGGSD; partner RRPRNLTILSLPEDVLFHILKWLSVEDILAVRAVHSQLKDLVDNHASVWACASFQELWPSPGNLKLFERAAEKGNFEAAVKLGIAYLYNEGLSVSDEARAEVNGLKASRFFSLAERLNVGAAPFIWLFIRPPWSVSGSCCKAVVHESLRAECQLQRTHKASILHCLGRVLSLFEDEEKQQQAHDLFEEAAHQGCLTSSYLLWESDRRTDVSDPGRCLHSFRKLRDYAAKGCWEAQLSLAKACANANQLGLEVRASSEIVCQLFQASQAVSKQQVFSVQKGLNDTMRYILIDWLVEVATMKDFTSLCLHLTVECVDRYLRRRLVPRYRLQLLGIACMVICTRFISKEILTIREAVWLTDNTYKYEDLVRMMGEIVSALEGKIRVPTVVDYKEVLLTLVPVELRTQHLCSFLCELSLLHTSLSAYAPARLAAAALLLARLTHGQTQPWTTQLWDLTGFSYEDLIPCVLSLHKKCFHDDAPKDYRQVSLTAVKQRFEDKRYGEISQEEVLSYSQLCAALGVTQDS
| Change | normalised enrichment score |
| --- | --- |
| V3S | 3.77 |
| L7F | 0.5 |
| F8E | 0.584 |
| T9F | 9.25 |
| T9N | 8.13 |
| R4T | 4.17 |
| T9D | 7.66 |
| R5P | -0.45 |
| F8Y | 5.71 |
| R5A | 0.742 |
| F8Q | 0.759 |
| L7N | 0.203 |
| V3T | 7.51 |
| T9Q | 7.73 |
| A6M | 7.46 |
| R4Y | 5.91 |
| R4N | 6.57 |

Series 2 — target: CREM, bZIP domain (human); technique: DHFR protein complementation; sample: yeast; relative to: wild-type JUN-FOS pair; reading: higher = stronger binding
Notes: single substitutions, most at no-binding floor
Starting sequence: JUN, bZIP domain (human); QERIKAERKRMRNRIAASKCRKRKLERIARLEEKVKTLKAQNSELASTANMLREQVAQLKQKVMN; partner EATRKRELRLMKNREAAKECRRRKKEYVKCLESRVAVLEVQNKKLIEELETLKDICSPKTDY
| Change | binding fitness [natural log] |
| --- | --- |
| V56R | -1.51 |
| E44G | -1.45 |
| L52R | -1.55 |
| E33C | -1.32 |
| Q55A | -1.51 |
| E33V | -1.45 |
| L45P | -1.51 |
| E33M | -1.54 |

Series 3 — technique: protein-binding microarray; molecule type: double-stranded DNA, one strand shown; sample: in vitro; tested at: 0.8 µM; notes: whole 60-bp probe, no competitor; reading: higher = stronger binding; all sequences stand within: … GTCTTGATTCGCTTGACGCTGCTG
Target: Centromere-binding protein 1, full length, N-terminal tag (CBF1, Saccharomyces cerevisiae, UniProt P17106, residues 1-351)
Sequence of UniProt P17106 (whole entry, looked up): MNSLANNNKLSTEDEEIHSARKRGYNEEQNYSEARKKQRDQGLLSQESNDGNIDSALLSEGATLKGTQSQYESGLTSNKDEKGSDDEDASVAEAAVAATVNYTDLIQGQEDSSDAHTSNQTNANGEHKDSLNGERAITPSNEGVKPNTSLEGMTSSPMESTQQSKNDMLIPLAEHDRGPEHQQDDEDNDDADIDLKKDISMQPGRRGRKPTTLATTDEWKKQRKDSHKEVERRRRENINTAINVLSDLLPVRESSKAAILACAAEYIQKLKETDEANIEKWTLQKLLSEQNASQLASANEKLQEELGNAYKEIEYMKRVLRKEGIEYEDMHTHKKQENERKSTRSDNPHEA
| Oligonucleotide | fluorescence intensity [a.u.] |
| --- | --- |
| GAAATAAAAATTATGAACGTGTCTAGCTACATATAG | 570 |
| CTATGTACCGGGTGGCACGTCGTGCACAGAATCTTC | 562 |
| GAACTTTTACAACATGATGTCCCTGAAACAGAGTAG | 581 |
| CCTAACTACTATAATTCAGTTGAATAGCTTCGTACA | 485 |
| GAACTACACAGCTATCATATGAGGGGAGTGATCTAG | 553 |
| CTACGGTCGCCATATCATGAGATTACTTGAAGCTTC | 516 |
| CCTAACTACTATACTCGTGTGCGATAGCTTCGTACA | 593 |
| CTAAACGGCTACCGCGCGGTGACGAATCAATGCTTC | 491 |

Series 4 — technique: aptamer microarray, sandwich; molecule type: DNA with 2'F-ANA; sample: in vitro; tested at: 200 nM; added: Cy3 exosite-II aptamer, 400 nM; reading: higher = stronger binding; oligonucleotide: GGTTGGTGTGGTTGG
Target: Prothrombin, mature alpha-thrombin (F2, Homo sapiens, UniProt P00734)
Notes: whole 15-mer aptamer, many near background
| Modification | mean fluorescence intensity [a.u.] |
| --- | --- |
| 2'F-ANA at 3 4 5 7 9 10 11 12 15 | 59.5 |
| 2'F-ANA at 3 6 8 9 10 14 | 404 |
| 2'F-ANA at 1 2 4 5 6 7 9 14 | 47.2 |
| 2'F-ANA at 1 2 3 5 6 8 9 10 | 50.2 |
| 2'F-ANA at 3 4 5 7 8 11 12 13 14 | 55.6 |
| 2'F-ANA at 1 3 4 6 7 8 9 11 12 13 | 248 |
| 2'F-ANA at 2 3 4 5 7 8 10 11 13 15 | 52.4 |
| 2'F-ANA at 1 2 3 5 7 8 9 11 12 15 | 108 |

Repeated from above (series 2):
| Change | binding fitness [natural log] |
| --- | --- |
| E33V | -1.45 |
| V56R | -1.51 |
| Q55A | -1.51 |
